{"data": "Literature values as cited in several papers", "note": "Each line is one published result; not all experiments were run side by side."}
{"Compound": "Cc1ccc(Cn2cc(C(=O)NCCOCCO)c(=O)c3cc(C(=O)/C=C/c4ccc([N+](=O)[O-])o4)ccc32)cc1", "tested on": "Trypanosoma brucei brucei", "observed": "parasite growth", "measurement": "EC50", "value": "80 nM"}
{"Compound": "CC[C@H](C)[C@H](NC(=O)[C@H](CCCNC(=N)N)NC(=O)[C@@H]1CCCN1C(=O)[C@H](CCCNC(=N)N)NC(=O)[C@H](Cc1ccccc1)NC(=O)[C@H](Cc1c[nH]cn1)NC(=O)[C@H](CCCNC(=N)N)NC(=O)[C@H](CC(C)C)NC(=O)[C@H](CCCCN)NC(=O)CNC(=O)[C@H](CC(C)C)NC(=O)[C@H](Cc1ccccc1)NC(=O)[C@H](CCCNC(=N)N)NC(=O)CNC(=O)[C@H](Cc1ccccc1)NC(=O)[C@H](CCCNC(=N)N)NC(=O)CNC(=O)[C@H](CCCNC(=N)N)NC(=O)[C@H](CCC(N)=O)NC(=O)[C@@H](NC(=O)[C@@H](N)CC(C)C)[C@@H](C)CC)C(=O)N[C@@H](CCCCN)C(=O)N[C@@H](Cc1ccccc1)C(=O)N[C@@H](CCCCN)C(=O)NCC(=O)N[C@@H](CCCCN)C(=O)N[C@@H](C)C(=O)NCC(=O)N[C@@H](Cc1c[nH]c2ccccc12)C(=O)N[C@H](C(=O)N[C@H](C(=O)NCC(=O)O)C(C)C)[C@@H](C)O", "tested on": "Pseudomonas aeruginosa", "measurement": "MIC", "value": "32 µM"}
{"Compound": "Cc1ccc(NC2CNC2)cc1C(=O)N[C@H](C)c1cccc(-c2ccc(CNC3CCCC3)s2)c1", "tested on": "SARS-CoV-2", "observed": "viral replication", "cell line": "A549", "measurement": "EC50", "value": "1400 nM"}
{"Compound": "CC[C@H](C)[C@H](NC(=O)[C@H](CCCCN)NC(=O)[C@H](CCCNC(=N)N)NC(=O)[C@H](CCCCN)NC(=O)[C@H](CC(C)C)NC(=O)[C@H](Cc1ccccc1)NC(=O)[C@H](CCC(=O)O)NC(=O)[C@H](CCCCN)NC(=O)[C@@H](NC(=O)[C@@H](NC(=O)[C@H](CCC(=O)O)NC(=O)[C@H](C)NC(=O)CNC(=O)[C@@H](N)CCCNC(=N)N)[C@@H](C)O)C(C)C)C(=O)N[C@@H](CCCNC(=N)N)C(=O)N[C@@H](CCC(=O)O)C(=O)N[C@@H](CCCNC(=N)N)C(=O)NCC(=O)N[C@H](C(=O)N[C@@H](CCCCN)C(=O)N[C@@H](C)C(=O)N[C@H](C(=O)N[C@H](C(=O)N[C@@H](C)C(=O)N[C@@H](Cc1c[nH]c2ccccc12)C(=O)O)[C@@H](C)CC)C(C)C)[C@@H](C)O", "tested on": "Escherichia coli", "measurement": "MIC", "value": "> 128 µM"}
{"Compound": "C[C@H](N)C(=O)N[C@@H](CO)C(=O)N[C@@H](C)C(=O)N[C@H]1CSC(=O)[C@H](Cc2ccccc2)NC(=O)[C@H](Cc2ccc(O)cc2)NC(=O)[C@H](C)NC(=O)[C@H](C)NC1=O", "tested on": "Staphylococcus epidermidis", "observed": "agr quorum sensing", "strain": "agr groups I-III", "concentration": "0.025 µM", "measurement": "inhibition", "value": "> 85%"}
{"Compound": "COC(=O)OC1C(=O)C2(C)C(O)CC3OCC3(OC(C)=O)C2C(OC(=O)c2cccc(OC(F)(F)F)c2)C2(O)CC(OC(=O)C(O)C(C=C(C)C)NC(=O)OC(C)(C)C)C(C)=C1C2(C)C (stereo not shown)", "tested on": "MCF7", "observed": "cytotoxicity", "measurement": "IC50", "value": "0.32 nM"}
{"Compound": "Oc1c(Br)cc(Br)c2nc3ccccc3nc12", "tested on": "Staphylococcus aureus", "observed": "biofilm eradication", "strain": "MRSA", "measurement": "MBEC", "value": "100 µM"}
{"Compound": "O=C(NCCN1CCCC2=CC3CC(CN4CCCCC34)C21)c1ccc(OC(F)(F)F)cc1 (stereo not shown)", "tested on": "HIV-1 NL4-3 Nanoluc", "observed": "viral replication", "cell line": "MT-4", "measurement": "IC50", "value": "> 40000 nM"}
{"Compound": "CCC(=O)OC1C(=O)C2(C)C(O)CC3OCC3(OC(C)=O)C2C(OC(=O)c2cccc(OC(F)(F)F)c2)C2(O)CC(OC(=O)C(O)C(C=C(C)C)NC(=O)OC(C)(C)C)C(C)=C1C2(C)C (stereo not shown)", "tested on": "MCF7", "observed": "cytotoxicity", "measurement": "IC50", "value": "0.37 nM"}
{"Compound": "CC(=O)c1ccc2c(c1)c(=O)c(C(=O)NCCOCCO)cn2Cc1ccc(Br)cc1", "tested on": "Trypanosoma brucei brucei", "observed": "parasite growth", "measurement": "IC50", "value": "7140 nM"}
